Experimental data gathered from unrelated publications.
Every numbered part comes from another study and shows a few of its results, in no order. Changes are numbered by the printed parent chain.

Set 1 — target: JUN, bZIP domain (human); method: DHFR protein complementation; medium: yeast; relative to: wild-type JUN-FOS pair; direction: higher = stronger binding
Notes: single substitutions, most at no-binding floor
Parent: JUN, bZIP domain (human); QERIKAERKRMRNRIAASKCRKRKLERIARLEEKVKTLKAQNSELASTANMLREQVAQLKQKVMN; partner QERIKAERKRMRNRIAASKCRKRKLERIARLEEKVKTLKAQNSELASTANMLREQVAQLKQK
Substitution	binding fitness [natural log]
N42H	-0.383
E33L	-0.312
E33G	-0.545
A46K	-0.179
E33Q	-0.34
E44G	-0.808
S47C	-0.229
K34W	-0.195
Q41K	-0.36

Set 2 — target: CCND1, cyclin fold, Cln2 fusion (human); method: yeast growth competition, sequencing; medium: yeast; notes: strong parent motif; relative to: not given; direction: higher = stronger binding
Parent: E2F1 docking peptide (human); PPVKRRLDFETDH
Substitution	normalised enrichment score
PPGKRRLDFETDH [V3G]	0.525
PVVKRRLDFETDH [P2V]	1.53
PPVKRVLDFETDH [R6V]	2.08
PPVKVRLDFETDH [R5V]	1.09
PPVDRRLDFETDH [K4D]	0.479
PPVKRRPDFETDH [L7P]	-0.0749
PPVKRRLDFHTDH [E10H]	1.82
PPVKWRLDFETDH [R5W]	0.49
PPVKRRRDFETDH [L7R]	-0.0371
PPVKRRLDFCTDH [E10C]	2.47
PPIKRRLDFETDH [V3I]	2.33
PPVKRRLDFEPDH [T11P]	2.48
PPVKRRLFFETDH [D8F]	2.92
PPVKRRLDFEMDH [T11M]	2.95

Set 3 — method: universal PBM; molecule type: double-stranded DNA, one strand shown; medium: in vitro; concentration: 600 nM; direction: higher = stronger binding
Target: Sal-like protein 4, full length isoform A (SALL4, Homo sapiens, UniProt Q9UJQ4, residues 1-1053)
UniProt Q9UJQ4, sequence (whole entry, looked up): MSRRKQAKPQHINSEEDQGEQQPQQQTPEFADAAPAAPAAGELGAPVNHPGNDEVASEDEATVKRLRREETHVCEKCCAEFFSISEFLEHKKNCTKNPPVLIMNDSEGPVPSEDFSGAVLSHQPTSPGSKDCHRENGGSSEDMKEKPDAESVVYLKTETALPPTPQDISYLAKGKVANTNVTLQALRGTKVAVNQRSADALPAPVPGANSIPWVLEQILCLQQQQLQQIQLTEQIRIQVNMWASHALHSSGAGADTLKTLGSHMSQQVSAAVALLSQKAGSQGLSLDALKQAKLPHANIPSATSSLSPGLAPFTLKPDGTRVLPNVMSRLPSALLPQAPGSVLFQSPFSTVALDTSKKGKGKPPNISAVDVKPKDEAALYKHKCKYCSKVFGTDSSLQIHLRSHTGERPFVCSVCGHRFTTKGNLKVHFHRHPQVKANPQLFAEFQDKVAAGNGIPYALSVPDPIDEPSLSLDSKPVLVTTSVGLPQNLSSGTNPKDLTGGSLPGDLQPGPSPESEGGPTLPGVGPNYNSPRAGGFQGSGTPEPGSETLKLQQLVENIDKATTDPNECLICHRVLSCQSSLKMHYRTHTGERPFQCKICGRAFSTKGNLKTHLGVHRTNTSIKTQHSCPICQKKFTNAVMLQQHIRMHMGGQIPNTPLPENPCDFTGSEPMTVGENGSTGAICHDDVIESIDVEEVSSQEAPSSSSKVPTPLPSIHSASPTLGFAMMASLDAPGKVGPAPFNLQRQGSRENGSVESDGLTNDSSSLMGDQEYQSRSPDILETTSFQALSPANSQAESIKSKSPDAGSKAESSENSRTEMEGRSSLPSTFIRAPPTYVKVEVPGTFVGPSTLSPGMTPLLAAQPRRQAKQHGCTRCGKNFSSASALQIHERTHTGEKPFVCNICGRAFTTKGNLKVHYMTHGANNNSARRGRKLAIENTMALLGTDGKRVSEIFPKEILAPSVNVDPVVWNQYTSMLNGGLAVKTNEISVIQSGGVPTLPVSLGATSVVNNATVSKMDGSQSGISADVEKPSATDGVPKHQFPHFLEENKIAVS
Notes: 8-mer, flanks averaged, mean of replicates
Strand	E-score
ACCCGGCG	-0.383
AGCTACAC	0.0599
AACGTTGA	0.0878
CAGGGACC	-0.36
CGGCGTTA	-0.229
ATACGAAT	0.281
CAAACTTC	0.0619
AAATCACC	0.169
CTCATTTC	0.148
CTCGAGGC	-0.245
AGAGGGAA	-0.0585
AGAATGGA	0.0897
GCCTACCC	-0.31
AACGGATG	-0.093
AAAACCGG	-0.258
GCAACTTA	0.075

Set 4 — target: UBE2V2 UBC core domain (UniProt Q15819); method: yeast two-hybrid; medium: yeast; notes: mostly zero background; relative to: not given; direction: higher = stronger interaction
B1: RNF181 RING domain (UniProt Q9P0P0); chain VIRGSQAELKCPVCLLEFEEEETAIEMPCHHLFHSSCILPWLSKTNSCPLCRYELPTDDDTY
Target sequence (chain): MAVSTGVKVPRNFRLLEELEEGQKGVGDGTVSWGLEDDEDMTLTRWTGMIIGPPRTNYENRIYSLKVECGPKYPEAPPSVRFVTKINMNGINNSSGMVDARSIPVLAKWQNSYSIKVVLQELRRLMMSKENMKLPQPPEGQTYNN
Molecule	lacZ reporter activity
KITELNPHLMCVLCGGYFIDATTIIECLHSFCKTCIVRYLETSKYCPICDVQVHKTRPLL (BMI1 RING domain (UniProt P35226))	0
KLWDINAHITCRLCSGYLIDATTVTECLHTFCRSCLVKYLEENNTCPTCRIVIHQSHPLQ (PCGF3 RING domain (UniProt Q3KNV8))	0
B1 (RNF181 RING domain)	0
NTAPSLTVPECAICLQTCVHPVSLPCKHVFCYLCVKGASWLGKRCALCRQEIPEDFLDK (RNF146 RING domain (UniProt Q9NTX7))	0

Set 5 — method: RNA Bind-n-Seq; molecule type: RNA; medium: in vitro; concentration: 200 nM; notes: whole 134-nt RNA, ends assumed; added: 150 mM KCl; relative to: input library; direction: higher = stronger binding
Target: Ras GTPase-activating protein-binding protein 1, full length (G3BP1, Homo sapiens, UniProt Q13283)
UniProt Q13283, sequence (whole entry, looked up): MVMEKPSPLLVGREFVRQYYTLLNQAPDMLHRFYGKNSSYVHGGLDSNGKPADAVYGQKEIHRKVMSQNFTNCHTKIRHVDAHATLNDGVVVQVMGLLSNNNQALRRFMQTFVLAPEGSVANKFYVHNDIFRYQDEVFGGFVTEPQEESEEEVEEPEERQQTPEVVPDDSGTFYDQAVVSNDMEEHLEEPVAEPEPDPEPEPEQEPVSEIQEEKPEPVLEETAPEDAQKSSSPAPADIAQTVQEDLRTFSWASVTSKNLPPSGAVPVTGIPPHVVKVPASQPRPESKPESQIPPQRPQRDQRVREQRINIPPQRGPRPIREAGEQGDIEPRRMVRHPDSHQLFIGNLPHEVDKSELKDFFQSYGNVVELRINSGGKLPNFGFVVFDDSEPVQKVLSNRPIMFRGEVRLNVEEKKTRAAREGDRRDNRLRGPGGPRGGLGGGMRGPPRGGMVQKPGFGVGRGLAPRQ
Strand	log2 enrichment
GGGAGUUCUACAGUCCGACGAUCCCUCAAGUCCUGUGCUACACAUCGUAUGUACCGAAUCGGAAAGGUUUGGAGGAAAGUAUUAUGUUACGCCGUUCGGAUCUGCACUUCCAGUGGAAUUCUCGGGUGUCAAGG	-0.1
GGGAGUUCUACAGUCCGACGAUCCACAGACAACACGCACCCACACAGACACAGAGGGAAGGGGUUGGGAUGGGGACAGGGUGCACAUCAGGGCGGGGUAGGACCCCAGCCCCUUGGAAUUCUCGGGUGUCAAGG	1.87
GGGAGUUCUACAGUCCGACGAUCGUCCUGUGCUACACAUCGUAUGUACCGAAUCAAAUUUAAAUUUUUAAACCCCCCCAAAAAAGUAUUAUGUUACGCCGUUCGGAUCUGCACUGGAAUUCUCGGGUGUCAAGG	0.0825
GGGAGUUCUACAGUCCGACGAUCAGUCCUGUGCUACACAUCGUAUGUACCGAAUCGGGUUUUUGGGUUUUUGGGAAAGGGAAAGUAUUAUGUUACGCCGUUCGGAUCUGCACUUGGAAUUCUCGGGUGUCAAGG	-0.488
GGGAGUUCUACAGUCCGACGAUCCACAGACAACACGCACCCACACAGACACAGAGGUAAGGGGUUGGGAUGGGGACAGGGUGCACAGCAGGGCGGGGUAGGACCCCAGCCCCUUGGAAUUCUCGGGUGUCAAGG	1.84
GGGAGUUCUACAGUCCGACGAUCUCAAGUCCUGUGCUACACAUCGUAUGUACCGAAUCGGAAAAAAAGGAAAGGUGGAAAGUAUUAUGUUACGCCGUUCGGAUCUGCACUUCCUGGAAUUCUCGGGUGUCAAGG	-1.49
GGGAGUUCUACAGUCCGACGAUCCUCAAGUCCUGUGCUACACAUCGUAUGUACCGAAUCGGGCGGGCGGGGCGGGGAAAGUAUUAUGUUACGCCGUUCGGAUCUGCACUUCCAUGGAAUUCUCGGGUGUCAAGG	1.7

Set 6 — method: RNA Bind-n-Seq; molecule type: RNA; medium: in vitro; concentration: not given; relative to: input RNA pool; direction: higher = stronger binding
Target: RING finger protein unkempt homolog, zinc fingers 1-6, GST-SBP tag (UNK, Homo sapiens, UniProt Q9C0B0, residues 30-357)
UniProt Q9C0B0, sequence (30-357, looked up): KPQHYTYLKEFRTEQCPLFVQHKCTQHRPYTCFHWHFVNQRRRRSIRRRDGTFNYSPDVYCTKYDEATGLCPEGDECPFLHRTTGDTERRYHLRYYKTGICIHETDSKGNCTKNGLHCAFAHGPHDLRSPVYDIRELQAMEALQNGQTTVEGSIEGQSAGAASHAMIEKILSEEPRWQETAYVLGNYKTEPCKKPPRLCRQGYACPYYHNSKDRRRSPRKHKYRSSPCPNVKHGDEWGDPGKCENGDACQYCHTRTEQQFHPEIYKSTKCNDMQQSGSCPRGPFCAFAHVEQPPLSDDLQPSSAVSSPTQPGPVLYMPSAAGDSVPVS
Notes: RNA with constant flanks, human and mouse sites, ends assumed
Strand	bound/input enrichment
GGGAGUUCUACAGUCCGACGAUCAUGACUCUGCUGUUCUAAGCCUCCCAUGGUUCUCUUGUAACUGUGUUGGCUUGCUUUAAAAUAGAGCAAGCCUAGGGCUGGUGAGAUGGCUCAGUGGGUAAGAGCACCCGACUGCUCUUCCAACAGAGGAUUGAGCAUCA	0.104 ratio
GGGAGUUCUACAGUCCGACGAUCGUUUUAUUACUUCUUGGAGAUGAAUCCAUGCAGAAGUUAUUUGAAGGAGGAAAAGGUAGUGUAUUUCAAAGGGUACUCUCUUGGAUCCCAUCAAAUAACCACCAGCUACAGCUUGCUGGACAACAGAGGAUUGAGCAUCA	0.133 ratio
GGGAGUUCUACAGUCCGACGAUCAAUCUCUCUCUGAAUCGUUAUUUCAUCAAAGUGCCGCGUUCCCAGGAAGAACCAGGCAAAGGCUCGUUCUGGAGGAUAGACCCAGCCUCUGAAAGCAAAUUAAUAGAACAGGCUUUUAGGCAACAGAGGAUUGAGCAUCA	0.503 ratio
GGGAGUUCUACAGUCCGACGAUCCCAGGUGUGCCCGGCUAAUGGUAUUACUGAGAGAGAGAGGCGUAAGAACUCUUAUUUAUUAUAGAAAGGAUUUGGGGAAUGUGGGUCUAAGGGCUGGGGGUGUGGGUUAGUGGUGUGCAUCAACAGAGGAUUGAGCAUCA	12 ratio
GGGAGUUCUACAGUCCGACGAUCCUAGUACUCCCAACCCCACCUUACUUGUUUGGGAUUCUUAUCCAGAAAUGGGAAACUCCUUGGGCUAAAGUAUUUCCUAUCCGUCUGAUGUUGAGACUUGGAGCUGAAUAUCGACUUUAUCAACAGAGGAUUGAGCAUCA	0.352 ratio
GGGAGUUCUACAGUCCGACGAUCGCACUAGGGUAGAGAGAAAGCGGCACCAGCCAACGGCCUCUGUGCACGUGUGUGCUCUAGUAGCUCAGAGCAGCAAGAAGAAAUGGUUUCCUAUCUGCUGAGGCAAGGGAUGGCACUCGGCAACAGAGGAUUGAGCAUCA	0.234 ratio

Mixed results
Molecule	partner	method	medium	added	measurement	result
RRS1 (Homo sapiens, UniProt Q15050)	RPF2 (Homo sapiens, UniProt Q9H7B2)	cross-linking MS	cell fractions	DMTMM	cross-linked residues	E94 to K244

A few entries again (set 2):
Substitution	normalised enrichment score
PPVKRRLDFHTDH [E10H]	1.82
PPVKRRLDFCTDH [E10C]	2.47
PPIKRRLDFETDH [V3I]	2.33
PPVKWRLDFETDH [R5W]	0.49
